Measured values from different studies.
Parts stem from different laboratories: compare values within a part only. Substitutions count along the parent as printed.

Sample 1 — method: RNA Bind-n-Seq; form: RNA; matrix: in vitro; tested at: not given; baseline: input RNA pool; direction: higher = stronger binding; quantity: bound/input enrichment
Target: RING finger protein unkempt homolog, zinc fingers 1-6, GST-SBP tag (UNK, Homo sapiens, UniProt Q9C0B0, residues 30-357)
Notes: RNA with constant flanks, human and mouse sites, ends assumed
Residues (chain): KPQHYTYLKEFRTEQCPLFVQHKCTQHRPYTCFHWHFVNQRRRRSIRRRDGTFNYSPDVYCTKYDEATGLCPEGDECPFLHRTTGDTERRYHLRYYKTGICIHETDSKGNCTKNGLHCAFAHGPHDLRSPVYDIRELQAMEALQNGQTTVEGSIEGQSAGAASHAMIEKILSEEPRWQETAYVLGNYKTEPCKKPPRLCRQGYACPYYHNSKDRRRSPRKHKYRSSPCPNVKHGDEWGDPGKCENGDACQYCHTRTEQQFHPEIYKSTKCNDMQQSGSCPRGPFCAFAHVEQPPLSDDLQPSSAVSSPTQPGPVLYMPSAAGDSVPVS
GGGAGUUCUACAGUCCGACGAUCGUGCCUUCCCAAAUUGGUAAUCUGGAAGCCUUGAGAGACUUCAAUGUAAGAAGAAAUCAUCUUCUACGCUUGCCUGAAGAGCUGGCAGAGGUGCCUUUGAUACGGCUCGACUUCUCGUGCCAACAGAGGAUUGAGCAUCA: 0.137 ratio
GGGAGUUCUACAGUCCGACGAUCAUAGAUGAAAUUGAUGUGGACCAGGAAGGAAUUGCUGAAAUGAUCCUGGAUGAAAAUGCUAUUGCUCAGGUCCCACGCCCUGGCACAUCUUUGAAGCUCCCUGGCACUAACCAAACAGGACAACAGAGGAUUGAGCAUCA: 0.258 ratio
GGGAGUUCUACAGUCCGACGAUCGAGGCAGCUGCUCAGCUCCUGGAAUCUUCAGUUCAAAACCUUUUUAAGCAGGUAGAUUUAAUAGACCUAGUACGCUGGAAGAUUUUAAAAGAUAAACAUAUCCCUCAAUUUUUACAAGAACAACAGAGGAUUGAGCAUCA: 1.1 ratio
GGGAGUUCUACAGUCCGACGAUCCUUUAUGGGCCUCGAAGAGUUGAAAUAAUGGAAGAAGAAAGUGAACAGUAAUCUUCAAUUUAGCUAUUUAUGCUUAGGUGUGAAUGUUUUUGUUGUUGUUGUUGAACAUUUCUAUAAUCUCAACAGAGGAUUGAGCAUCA: 0.283 ratio
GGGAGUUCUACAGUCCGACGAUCCUAGUGCCAUGGGAACCAGGUCUGAAAAAGUAGAGAGAAGUGAAAGUAGAGUCUGGGAAGUAGCUGCCUAUAACUGAGACUAGACGGAAAAGGAAUACUCGUGUAUUUUAAGAUAUGAAUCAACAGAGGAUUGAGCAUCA: 0.678 ratio
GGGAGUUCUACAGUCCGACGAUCAAUGAACAUAAUGCCAAAAUAAUUAAAUAUAUAAGAACUAAGACAAAGCCCCAUUUGUUUUAUAUUCCUGGAAGAAUGUGUCCAGCUACCCAAAAACUAAUAGAAGAGUCACAGAGAAAACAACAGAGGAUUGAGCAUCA: 4.74 ratio
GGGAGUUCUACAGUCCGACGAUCCCUUUUCUUUCCUUUUUUUUUUUUUUUUUAUACUCCCCCCCCCCACCCCUUCCCUUUUAAAUUUUGGUCGGUGGCGGCGGUGCUGGGCCGGAGGAAAGAAGGGACACGGAGUCCUCCCUCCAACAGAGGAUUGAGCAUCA: 1.32 ratio
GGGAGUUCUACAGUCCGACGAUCAAAGCAACUUUUAUCAAAGUACCCCAGAACCAAAAUGGCAAAUCUAAAGGGUAUGCAUUUAUAGAGUUUGCUUCAUUCGAAGACGCUAAAGAAGCUUUAAAUUCCUGUAAUAAAAGGGAACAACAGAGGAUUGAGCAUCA: 0.0984 ratio

Sample 2 — method: DHFR PCA, deep sequencing; matrix: yeast; with: (+)-ABA 0.39 µM; baseline: wild-type fitted maximum; direction: higher = stronger binding; quantity: relative binding score
Target: ABI1, truncated, D143A, DHFR fusion (Arabidopsis thaliana)
Notes: methotrexate growth selection, single substitutions
Starting sequence: PYL1, truncated, DHFR fusion (Arabidopsis thaliana); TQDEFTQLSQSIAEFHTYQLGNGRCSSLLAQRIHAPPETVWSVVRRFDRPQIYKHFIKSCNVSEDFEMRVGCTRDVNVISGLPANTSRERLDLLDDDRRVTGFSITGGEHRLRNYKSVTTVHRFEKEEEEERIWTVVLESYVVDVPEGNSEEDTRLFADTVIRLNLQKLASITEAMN; partner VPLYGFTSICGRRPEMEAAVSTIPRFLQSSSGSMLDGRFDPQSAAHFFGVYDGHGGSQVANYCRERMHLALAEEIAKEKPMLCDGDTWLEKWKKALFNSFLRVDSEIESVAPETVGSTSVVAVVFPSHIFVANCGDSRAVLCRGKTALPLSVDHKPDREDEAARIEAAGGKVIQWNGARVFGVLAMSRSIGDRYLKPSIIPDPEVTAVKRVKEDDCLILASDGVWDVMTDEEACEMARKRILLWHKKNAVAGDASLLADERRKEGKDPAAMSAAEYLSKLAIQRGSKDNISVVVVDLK
H16T: -7.62%
L112G: -9.65%
E89N: -9.26%
E128C: 49.5%
E128V: 20.7%
N149V: 54.7%
G21Q: 42%
F56H: 5.27%
E109Y: -4.06%
E125M: 45%
R113E: 10.8%
C60T: 10.8%
V161M: 78.7%
V100Y: -6.58%
L112A: -6.36%
V118G: -12.1%
V76I: 69.4%
G107W: -0.904%
Q51E: 31.7%
R74N: -4.91%
R123C: 27.7%
R49T: 28.7%
N114H: 6.81%
P36N: 30.4%
D95N: 1.08%

Sample 3 — method: protein binding microarray; form: double-stranded DNA, one strand shown; matrix: in vitro; tested at: not given; baseline: not given; direction: higher = stronger binding; quantity: E-score
Target: Histone acetyltransferase KAT6A, both winged helices, GST fusion (KAT6A, Homo sapiens, UniProt Q92794, residues 1-181)
Notes: 8-mer, flanks averaged, mean of 2 arrays, mostly near background
Target sequence (chain): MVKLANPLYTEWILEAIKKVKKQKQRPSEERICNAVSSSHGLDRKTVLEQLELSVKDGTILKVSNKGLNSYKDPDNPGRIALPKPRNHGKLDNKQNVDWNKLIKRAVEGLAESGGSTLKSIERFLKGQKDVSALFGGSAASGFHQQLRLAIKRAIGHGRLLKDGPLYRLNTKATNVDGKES
ACGAAACA: -0.00987
CCCTGGCA: -0.103
ATAGATAC: -0.0685
CCGTGAGA: 0.236
CGGCGGAG: 0.294
ATCCAAAA: -0.0565
GCCTCTGA: -0.169
ACGCAGGC: 0.0905
CGGAACGA: -0.0147
AGGCGACC: -0.0264
GCTGAGTA: -0.115
CCGTCTCA: 0.152
AGGAGACT: -0.185
AAATATCT: -0.158
CAGCTAAG: -0.146
GCTGTACA: 0.0234
ACATACAT: -0.125
CATCGACC: 0.038
AACGGAGA: 0.196
TCTAGCAA: -0.116

Sample 4 — method: RNA Bind-n-Seq; form: RNA; matrix: in vitro; tested at: 365 nM; baseline: no-protein control; direction: higher = stronger binding; quantity: RBNS enrichment (R)
Target: RNA binding protein fox-1 homolog 2, RRM domain, GST-SBP tag (RBFOX2, Homo sapiens, UniProt O43251-10, residues 100-194)
Notes: natural RNA segment, single round, ends assumed
Residues (chain): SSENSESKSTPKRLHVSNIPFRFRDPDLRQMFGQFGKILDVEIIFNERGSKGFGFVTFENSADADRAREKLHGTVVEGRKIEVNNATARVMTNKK
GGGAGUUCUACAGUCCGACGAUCCCACCAUUCAAGAGAUGACUGAGAAGGAGAUGGUAAGUUCAAGAAGACUGAUUGCACCUGGGACCCAGGCCCUUUCUUUGGGAUCCAGUCCCAGCCUUCAUCCAUGUGAUUGGAAUUCUCGGGUGCCAA: 0.536
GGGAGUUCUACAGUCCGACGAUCUUCCCGUGACAGGAAACGACCUUGUGUUCUGAGGAGAGCGUGAAGGCUGUGCCUGCCCUGCCAGUGCAGGGAGCUGUCCCGCACUUGAGCAGUGUCAGAGAUUCUUGCUUUGGAAUUCUCGGGUGCCAA: 0.268
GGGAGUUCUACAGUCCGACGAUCAUUUCACCCAGUGUCUUCUGCCUCCCUCUGCGUUGGUAUCUGCUACAUCCCAGGCCACCACCUCCGAGGAUGAAAAGAUGGCUGCCUGCAGCUUCCACGGAAUCCCUCCCUGGAAUUCUCGGGUGCCAA: 0.374
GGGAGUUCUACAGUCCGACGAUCACUCGUUUCUAGGGUUUUUUAUUUGCAGUUUAGGAACUAUUAGGAAUGUCAGGACUUUAUCAGCAGGGGUAAAACUACCACCUGGCCUAGCCUAAGUAGGAAGUGAAAAGUGGAAUUCUCGGGUGCCAA: 0.747
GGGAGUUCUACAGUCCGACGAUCGUAAGAAGAUACAGCUACAGAAAAUAGUUGCGUGUAUGGGAGAACAGUCAUUGUAAUUGGGUAGUUUUGUUAAUAAAUAUUUUUAAAUCUUGCUUUUCAGAAAUUACCGAUGGAAUUCUCGGGUGCCAA: 0.363
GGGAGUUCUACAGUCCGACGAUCAUUUGAGUUUAUUCAGACUUAAUUUAGUGCCCUACUUGUGUUAUAAUGGAAACUUAGAAGGUCAGAACUCUGUAAUGGACAUAAACUGUUAAGUACUCAGGCAUGACUACUGGAAUUCUCGGGUGCCAA: 0.646
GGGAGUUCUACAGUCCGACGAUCUUUUAGCAUGAUUUUCUUUUAAACUGCUUUUCAUUUUAAGGGCACCCGUGGCGGAAGCUGGUUUUGCAAGGACUGUGUAAGCUGUAUGCGUUCUAGCUGUAUGCGUUCUGUGGAAUUCUCGGGUGCCAA: 1.76
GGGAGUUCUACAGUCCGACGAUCUCUUAUCUUGAGAGUUAGGAGCACCAUAGGAUAUGAUGGUCUAUGUGCUGCCAACAGGCUCCCCGAAGCGAGUCACAAACACAUACAGCAACACUACUUGAGAAUGGUACUGGAAUUCUCGGGUGCCAA: 0.752

A few entries again (sample 2):
D95N: 1.08%
P36N: 30.4%
R74N: -4.91%
E128V: 20.7%
